Results of several laboratories.
Parts stem from different laboratories: compare values within a part only. ± marks the error that the study gave.

Sample 1
Structure (SMILES): Cc1cc(OCc2nnc(SC3CCCC3)n2-c2cccnc2)ccc1-c1ccc(S(C)(=O)=O)cc1
cell line	GI50 [µM]
SF-268	1.41
CAKI-1	1.15
SK-MEL-28	1.68

Further values, each from its own experiment
EPHX2: Bifunctional epoxide hydrolase 2 (EPHX2, Homo sapiens, UniProt P34913)
Sequence of UniProt P34913 (whole entry, looked up): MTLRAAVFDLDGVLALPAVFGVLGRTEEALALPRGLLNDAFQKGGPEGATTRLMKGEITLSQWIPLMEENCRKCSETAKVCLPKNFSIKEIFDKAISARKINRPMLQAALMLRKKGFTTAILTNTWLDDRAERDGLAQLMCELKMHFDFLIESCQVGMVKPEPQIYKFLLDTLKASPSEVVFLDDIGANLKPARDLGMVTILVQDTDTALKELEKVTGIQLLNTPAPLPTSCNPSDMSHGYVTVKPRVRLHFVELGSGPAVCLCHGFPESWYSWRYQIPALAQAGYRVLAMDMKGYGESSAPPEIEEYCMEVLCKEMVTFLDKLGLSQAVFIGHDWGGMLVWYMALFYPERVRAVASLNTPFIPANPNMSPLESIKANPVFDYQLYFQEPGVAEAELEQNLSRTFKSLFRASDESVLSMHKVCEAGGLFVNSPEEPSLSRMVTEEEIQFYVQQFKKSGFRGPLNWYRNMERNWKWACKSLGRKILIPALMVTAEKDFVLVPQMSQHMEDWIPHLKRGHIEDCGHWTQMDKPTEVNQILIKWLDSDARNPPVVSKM
Molecule	target or system	assay	conditions	endpoint	result
Cc1ccccc1S(=O)(=O)Nc1c(N2CCC(NC(=O)Nc3ccc(Cl)c(F)c3)CC2)c(=O)c1=O	EPHX2			IC50	0.0062 ± 0.001 µM
pyc (Rhizobium etli, UniProt Q2K340)	CC(=O)OP(=O)(O)O	steady-state kinetics	pH 7.5, 25 °C	Km	340 µM
O=C(Nc1ccc(-c2ccc3ccccc3n2)cc1)C1CCN(Cc2ccc(F)cc2)CC1	EPHX2			IC50	0.316 µM

Repeated from above (sample 1):
cell line	GI50 [µM]
SF-268	1.41
